Results pooled from the literature.
Lines come from different studies, so protocols differ. Numbers after ± are the reported error.
TDP1: Tyrosyl-DNA phosphodiesterase 1 (TDP1, Homo sapiens, UniProt Q9NUW8)
UniProt Q9NUW8, sequence (whole entry, looked up): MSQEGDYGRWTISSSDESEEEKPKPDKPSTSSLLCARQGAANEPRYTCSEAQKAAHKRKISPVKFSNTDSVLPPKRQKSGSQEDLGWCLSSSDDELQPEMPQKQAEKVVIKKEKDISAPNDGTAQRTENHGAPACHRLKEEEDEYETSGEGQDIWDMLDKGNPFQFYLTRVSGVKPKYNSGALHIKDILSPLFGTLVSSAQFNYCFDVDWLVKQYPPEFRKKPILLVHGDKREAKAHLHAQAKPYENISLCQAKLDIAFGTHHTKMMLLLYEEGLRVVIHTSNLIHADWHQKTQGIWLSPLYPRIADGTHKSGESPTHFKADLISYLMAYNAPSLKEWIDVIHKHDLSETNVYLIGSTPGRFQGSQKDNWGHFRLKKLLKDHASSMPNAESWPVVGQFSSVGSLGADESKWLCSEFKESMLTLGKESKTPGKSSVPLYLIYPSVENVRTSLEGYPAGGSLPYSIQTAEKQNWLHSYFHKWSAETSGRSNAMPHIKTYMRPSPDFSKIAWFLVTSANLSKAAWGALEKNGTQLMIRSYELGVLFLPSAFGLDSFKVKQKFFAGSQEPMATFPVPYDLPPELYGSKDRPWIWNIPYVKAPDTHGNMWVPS

Structure (SMILES) | target or system | test | test system | setting | quantity | result
N#C[C@@H]1CC(F)(F)CN1C(=O)CNC(=O)c1ccnc2c(NC(=O)CCOCCOCCOCCOCCOCCOCCNC(=O)[C@H](CCCCNC(=O)CN3CCN(CC(=O)[O-])CCN(CC(=O)[O-])CCN(CC(=O)[O-])CC3)NC(=O)CCCc3ccc(I)cc3)cccc12.[177Lu+3] | – | – | mouse, U-87 MG tumour xenograft, kidneys | 48 h | tissue uptake | 0.78 ± 0.46 %ID/g
[123I]c1ccc2nc(-c3ccc(-n4ccnn4)nc3)cn2c1 | – | – | Wistar rat, male, red marrow | intravenous, 4 MBq, 5 min | tissue uptake | 0.993 ± 0.272 %ID/g
N#C[C@@H]1CC(F)(F)CN1C(=O)CNC(=O)c1ccnc2c(NC(=O)[C@@H](N)CCCCNC(=O)CCOCCOCCOCCOCCOCCOCCNC(=O)CN3CCN(CC(=O)[O-])CCN(CC(=O)[O-])CCN(CC(=O)[O-])CC3)cccc12.[177Lu+3] | – | – | mouse, U-87 MG tumour xenograft, salivary gland | 4 h | tissue uptake | 0.38 ± 0.14 %ID/g
O=C(NCC1OC2CCC=CCCC2O1)c1ccc([18F])nc1 (centres unmarked) | – | – | healthy female BALB/c nude mice, muscle | intravenous, 7.4 MBq per mouse, 10 min | tissue uptake | 1.7 ± 0.5 %ID/g
O=C(O)CCCOc1ccc([18F])cc1-c1cc(-c2ccccc2C(F)(F)F)n(-c2ccccc2)n1 | – | – | mouse, small intestine | intravenous, dose not given, 60 min | tissue uptake | 3.91 ± 0.32 %ID/g
Cc1nn(C)c(N2CCOCC2)c1C=NOCc1ccc(-c2nc3cc(-c4ccccc4)ccn3c2Nc2ccc(C(=O)O)cc2)cc1 | TDP1 | enzyme activity, inhibitor | – | 100 µM, unpurified compound | inhibition | 84.8%
CCCC[C@H](NC(=O)CNC(=O)CNC(=O)[C@H](CCCCNC(=O)[C@H](CC(=O)O)NC(=O)C(C)c1ccc(CC(C)C)cc1)NC(=O)CN1CCN(CC(=O)O)CCN(CC(=O)O)CCN(CC(=O)O)CC1)C(=O)N[C@H]1CC(=O)NCCCC[C@@H](C(N)=O)NC(=O)[C@H](Cc2c[nH]c3ccccc23)NC(=O)[C@H](CCCNC(=N)N)NC(=O)[C@@H](Cc2ccccc2)NC(=O)[C@H](Cc2c[nH]cn2)NC1=O (some centres unmarked) [lutetium-177 labelled] | – | – | C57 mouse, skin | intravenous, 2 h, with: 10 µg NDP-MSH co-injection | tissue uptake | 0.85 ± 0.04 %ID/g
[11CH3]N1CCC(NC(=O)c2cc(-c3c(O)cc(O)cc3Oc3ccc([N+](=O)[O-])cc3)on2)CC1 | – | – | Wistar rat, female, healthy, blood | intravenous, 30 min | tissue uptake | 5.3 ± 1.1 %ID
COc1cccc(OC)c1-c1cc(C(=O)NC2(C(=O)O)C3CC4CC(C3)CC2C4)nn1-c1ccc(C(=O)N(C)CCOCCN(C)C(=O)[C@H](CCCCNC(=O)[C@H](CC(C)C)NC(=O)C2OC2C(=O)O)NC(=O)CN2CCN(CC(=O)[O-])CCN(CC(=O)[O-])CCN(CC(=O)[O-])CC2)cc1C(C)C.[177Lu+3] (mixture of isomers) | – | – | mouse HT-29 xenograft, large intestine | 168 h post injection, biodistribution | tissue uptake | 0.06 %ID/g
COc1ccc(Nc2nc(Nc3ccc(OCCOCCOCC[18F])cc3)ncc2Br)cc1 | – | – | ICR mice, S180 tumour-bearing, liver | intravenous, 370 kBq, 60 min | tissue uptake | 2.24 ± 0.16 %ID/g
COc1cccc(OC)c1-c1cc(C(=O)NC2(C(=O)O)C3CC4CC(C3)CC2C4)nn1-c1ccc(C(=O)N(C)CCOCCOCCN(C)C(=O)[C@H](CCCCNC(=O)[C@H](CC(C)C)NC(=O)C2OC2C(=O)O)NC(=O)CN2CCN(CC(=O)[O-])CCN(CC(=O)[O-])CCN(CC(=O)[O-])CC2)cc1C(C)C.[177Lu+3] (mixture of isomers) | – | – | mouse HT-29 xenograft, small intestine | 72 h post injection, biodistribution | tissue uptake | 0.082 %ID/g
N#C[C@@H]1CC(F)(F)CN1C(=O)CNC(=O)c1ccnc2c(NC(=O)[C@H](CCCCNC(=O)CCOCCOCCOCCOCCOCCOCCNC(=O)CN3CCN(CC(=O)[O-])CCN(CC(=O)[O-])CCN(CC(=O)[O-])CC3)NC(=O)CCCc3ccc(I)cc3)cccc12.[177Lu+3] | – | – | mouse, U-87 MG tumour xenograft, lung | 72 h | tissue uptake | 0.27 ± 0.43 %ID/g
COc1cccc(OC)c1-c1cc(C(=O)NC2(C(=O)O)C3CC4CC(C3)CC2C4)nn1-c1ccc(C(=O)N(C)CCCN(C)CCCN(C)C(=O)[C@H](CCCCNC(=O)[C@H](CC(C)C)NC(=O)C2OC2C(=O)O)NC(=O)CN2CCN(CC(=O)[O-])CCN(CC(=O)[O-])CCN(CC(=O)[O-])CC2)cc1C(C)C.[177Lu+3] (mixture of isomers) | – | – | mouse HT-29 xenograft, large intestine | 168 h post injection, biodistribution | tissue uptake | 0.136 %ID/g
COc1ccc(Nc2nc(Nc3ccc(OCCOCC[18F])cc3)ncc2Br)cc1 | – | – | ICR mice, S180 tumour-bearing, heart | intravenous, 370 kBq, 15 min | tissue uptake | 2.81 ± 0.09 %ID/g
CC(C)Cc1ccc(C(C)C(=O)N[C@@H](CCCCNC(=O)CCOCCOCCOCCOCCOCCOCCNC(=O)CN2CCN(CC(=O)[O-])CCN(CC(=O)[O-])CCN(CC(=O)[O-])CC2)C(=O)Nc2cccc3c(C(=O)NCC(=O)N4CC(F)(F)C[C@H]4C#N)ccnc23)cc1.[177Lu+3] (some centres unmarked) | – | – | mouse, U-87 MG tumour xenograft, salivary gland | 48 h | tissue uptake | 0.95 ± 0.23 %ID/g
COc1cccc(OC)c1-c1cc(C(=O)NC2(C(=O)O)C3CC4CC(C3)CC2C4)nn1-c1ccc(C(=O)NCCNC(=O)[C@H](CCCCNC(=O)[C@H](CC(C)C)NC(=O)C2OC2C(=O)O)NC(=O)CN2CCN(CC(=O)[O-])CCN(CC(=O)[O-])CCN(CC(=O)[O-])CC2)cc1C(C)C.[177Lu+3] (mixture of isomers) | – | – | mouse, HT-29 xenograft, muscle | 72 h post injection | tissue uptake | 0.08 %ID/g
CN(C)S(=O)(=O)c1ccc(-c2ccc(C=NOCc3ccc4nc(-c5ccccc5)c(Nc5ccc(C(=O)O)cc5)n4c3)o2)cc1 | TDP1 | enzyme activity, inhibitor | – | 100 µM, unpurified compound | inhibition | 47.7%

Repeated from above:
Structure (SMILES) | target or system | test | test system | setting | quantity | result
CC(C)Cc1ccc(C(C)C(=O)N[C@@H](CCCCNC(=O)CCOCCOCCOCCOCCOCCOCCNC(=O)CN2CCN(CC(=O)[O-])CCN(CC(=O)[O-])CCN(CC(=O)[O-])CC2)C(=O)Nc2cccc3c(C(=O)NCC(=O)N4CC(F)(F)C[C@H]4C#N)ccnc23)cc1.[177Lu+3] (some centres unmarked) | – | – | mouse, U-87 MG tumour xenograft, salivary gland | 48 h | tissue uptake | 0.95 ± 0.23 %ID/g
COc1cccc(OC)c1-c1cc(C(=O)NC2(C(=O)O)C3CC4CC(C3)CC2C4)nn1-c1ccc(C(=O)NCCNC(=O)[C@H](CCCCNC(=O)[C@H](CC(C)C)NC(=O)C2OC2C(=O)O)NC(=O)CN2CCN(CC(=O)[O-])CCN(CC(=O)[O-])CCN(CC(=O)[O-])CC2)cc1C(C)C.[177Lu+3] (mixture of isomers) | – | – | mouse, HT-29 xenograft, muscle | 72 h post injection | tissue uptake | 0.08 %ID/g
